Experimental data gathered from unrelated publications.
Lines come from different studies, so protocols differ.
ACHE: Acetylcholinesterase (ACHE, Homo sapiens, UniProt P22303)
UniProt P22303, sequence (whole entry, looked up): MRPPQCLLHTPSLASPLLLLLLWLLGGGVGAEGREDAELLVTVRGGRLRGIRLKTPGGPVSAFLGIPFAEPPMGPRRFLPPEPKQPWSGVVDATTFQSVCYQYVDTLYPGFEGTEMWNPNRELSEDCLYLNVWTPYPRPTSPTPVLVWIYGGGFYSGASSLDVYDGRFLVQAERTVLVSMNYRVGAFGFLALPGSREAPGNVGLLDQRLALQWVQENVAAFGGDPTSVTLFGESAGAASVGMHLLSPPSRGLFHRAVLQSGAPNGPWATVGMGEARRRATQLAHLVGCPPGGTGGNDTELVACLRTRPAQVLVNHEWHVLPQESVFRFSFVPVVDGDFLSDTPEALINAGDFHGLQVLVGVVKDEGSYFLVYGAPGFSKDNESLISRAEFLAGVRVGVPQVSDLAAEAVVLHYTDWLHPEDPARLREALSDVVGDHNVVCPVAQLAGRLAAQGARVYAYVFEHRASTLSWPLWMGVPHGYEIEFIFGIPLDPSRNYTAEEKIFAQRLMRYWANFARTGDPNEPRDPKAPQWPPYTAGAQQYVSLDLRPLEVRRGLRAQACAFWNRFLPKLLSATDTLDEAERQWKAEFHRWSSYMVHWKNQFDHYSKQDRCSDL
MYO3B: Myosin-IIIb (MYO3B, Homo sapiens, UniProt Q8WXR4)
UniProt Q8WXR4, sequence (whole entry, looked up): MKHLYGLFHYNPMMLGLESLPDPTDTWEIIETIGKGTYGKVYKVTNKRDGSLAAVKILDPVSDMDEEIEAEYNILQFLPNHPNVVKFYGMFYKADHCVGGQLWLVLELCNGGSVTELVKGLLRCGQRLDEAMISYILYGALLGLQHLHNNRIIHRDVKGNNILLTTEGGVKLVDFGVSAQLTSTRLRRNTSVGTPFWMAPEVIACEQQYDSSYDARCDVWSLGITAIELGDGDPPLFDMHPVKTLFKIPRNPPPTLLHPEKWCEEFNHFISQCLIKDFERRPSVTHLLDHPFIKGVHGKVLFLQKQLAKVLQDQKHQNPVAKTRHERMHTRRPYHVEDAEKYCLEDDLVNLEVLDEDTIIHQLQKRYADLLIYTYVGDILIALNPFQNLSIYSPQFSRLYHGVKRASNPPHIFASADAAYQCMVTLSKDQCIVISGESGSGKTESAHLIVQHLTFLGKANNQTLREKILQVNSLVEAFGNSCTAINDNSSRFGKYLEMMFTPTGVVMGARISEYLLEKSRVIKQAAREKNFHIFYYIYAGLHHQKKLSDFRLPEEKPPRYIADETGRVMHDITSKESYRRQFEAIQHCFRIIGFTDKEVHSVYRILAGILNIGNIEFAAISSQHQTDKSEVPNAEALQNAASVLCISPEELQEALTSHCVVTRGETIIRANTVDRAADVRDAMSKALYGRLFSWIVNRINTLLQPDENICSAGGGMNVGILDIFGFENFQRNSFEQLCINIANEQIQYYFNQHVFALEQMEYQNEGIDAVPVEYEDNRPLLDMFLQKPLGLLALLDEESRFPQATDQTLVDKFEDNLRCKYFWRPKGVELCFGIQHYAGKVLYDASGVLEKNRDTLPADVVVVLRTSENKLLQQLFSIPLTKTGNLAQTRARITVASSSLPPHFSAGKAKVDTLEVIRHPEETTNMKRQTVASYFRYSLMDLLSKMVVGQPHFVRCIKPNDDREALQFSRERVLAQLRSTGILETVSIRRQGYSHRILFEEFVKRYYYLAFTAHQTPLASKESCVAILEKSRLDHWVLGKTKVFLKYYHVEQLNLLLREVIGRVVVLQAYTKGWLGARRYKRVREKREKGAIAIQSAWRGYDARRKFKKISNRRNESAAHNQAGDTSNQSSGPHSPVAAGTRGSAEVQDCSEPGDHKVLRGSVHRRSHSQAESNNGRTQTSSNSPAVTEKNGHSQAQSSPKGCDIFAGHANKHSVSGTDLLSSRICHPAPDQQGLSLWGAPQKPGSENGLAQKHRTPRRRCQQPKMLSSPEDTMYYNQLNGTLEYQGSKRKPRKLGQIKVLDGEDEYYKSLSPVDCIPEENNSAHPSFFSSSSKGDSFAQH
LRRK2: Leucine-rich repeat serine/threonine-protein kinase 2 (LRRK2, Homo sapiens, UniProt Q5S007)
UniProt Q5S007, sequence (whole entry, looked up): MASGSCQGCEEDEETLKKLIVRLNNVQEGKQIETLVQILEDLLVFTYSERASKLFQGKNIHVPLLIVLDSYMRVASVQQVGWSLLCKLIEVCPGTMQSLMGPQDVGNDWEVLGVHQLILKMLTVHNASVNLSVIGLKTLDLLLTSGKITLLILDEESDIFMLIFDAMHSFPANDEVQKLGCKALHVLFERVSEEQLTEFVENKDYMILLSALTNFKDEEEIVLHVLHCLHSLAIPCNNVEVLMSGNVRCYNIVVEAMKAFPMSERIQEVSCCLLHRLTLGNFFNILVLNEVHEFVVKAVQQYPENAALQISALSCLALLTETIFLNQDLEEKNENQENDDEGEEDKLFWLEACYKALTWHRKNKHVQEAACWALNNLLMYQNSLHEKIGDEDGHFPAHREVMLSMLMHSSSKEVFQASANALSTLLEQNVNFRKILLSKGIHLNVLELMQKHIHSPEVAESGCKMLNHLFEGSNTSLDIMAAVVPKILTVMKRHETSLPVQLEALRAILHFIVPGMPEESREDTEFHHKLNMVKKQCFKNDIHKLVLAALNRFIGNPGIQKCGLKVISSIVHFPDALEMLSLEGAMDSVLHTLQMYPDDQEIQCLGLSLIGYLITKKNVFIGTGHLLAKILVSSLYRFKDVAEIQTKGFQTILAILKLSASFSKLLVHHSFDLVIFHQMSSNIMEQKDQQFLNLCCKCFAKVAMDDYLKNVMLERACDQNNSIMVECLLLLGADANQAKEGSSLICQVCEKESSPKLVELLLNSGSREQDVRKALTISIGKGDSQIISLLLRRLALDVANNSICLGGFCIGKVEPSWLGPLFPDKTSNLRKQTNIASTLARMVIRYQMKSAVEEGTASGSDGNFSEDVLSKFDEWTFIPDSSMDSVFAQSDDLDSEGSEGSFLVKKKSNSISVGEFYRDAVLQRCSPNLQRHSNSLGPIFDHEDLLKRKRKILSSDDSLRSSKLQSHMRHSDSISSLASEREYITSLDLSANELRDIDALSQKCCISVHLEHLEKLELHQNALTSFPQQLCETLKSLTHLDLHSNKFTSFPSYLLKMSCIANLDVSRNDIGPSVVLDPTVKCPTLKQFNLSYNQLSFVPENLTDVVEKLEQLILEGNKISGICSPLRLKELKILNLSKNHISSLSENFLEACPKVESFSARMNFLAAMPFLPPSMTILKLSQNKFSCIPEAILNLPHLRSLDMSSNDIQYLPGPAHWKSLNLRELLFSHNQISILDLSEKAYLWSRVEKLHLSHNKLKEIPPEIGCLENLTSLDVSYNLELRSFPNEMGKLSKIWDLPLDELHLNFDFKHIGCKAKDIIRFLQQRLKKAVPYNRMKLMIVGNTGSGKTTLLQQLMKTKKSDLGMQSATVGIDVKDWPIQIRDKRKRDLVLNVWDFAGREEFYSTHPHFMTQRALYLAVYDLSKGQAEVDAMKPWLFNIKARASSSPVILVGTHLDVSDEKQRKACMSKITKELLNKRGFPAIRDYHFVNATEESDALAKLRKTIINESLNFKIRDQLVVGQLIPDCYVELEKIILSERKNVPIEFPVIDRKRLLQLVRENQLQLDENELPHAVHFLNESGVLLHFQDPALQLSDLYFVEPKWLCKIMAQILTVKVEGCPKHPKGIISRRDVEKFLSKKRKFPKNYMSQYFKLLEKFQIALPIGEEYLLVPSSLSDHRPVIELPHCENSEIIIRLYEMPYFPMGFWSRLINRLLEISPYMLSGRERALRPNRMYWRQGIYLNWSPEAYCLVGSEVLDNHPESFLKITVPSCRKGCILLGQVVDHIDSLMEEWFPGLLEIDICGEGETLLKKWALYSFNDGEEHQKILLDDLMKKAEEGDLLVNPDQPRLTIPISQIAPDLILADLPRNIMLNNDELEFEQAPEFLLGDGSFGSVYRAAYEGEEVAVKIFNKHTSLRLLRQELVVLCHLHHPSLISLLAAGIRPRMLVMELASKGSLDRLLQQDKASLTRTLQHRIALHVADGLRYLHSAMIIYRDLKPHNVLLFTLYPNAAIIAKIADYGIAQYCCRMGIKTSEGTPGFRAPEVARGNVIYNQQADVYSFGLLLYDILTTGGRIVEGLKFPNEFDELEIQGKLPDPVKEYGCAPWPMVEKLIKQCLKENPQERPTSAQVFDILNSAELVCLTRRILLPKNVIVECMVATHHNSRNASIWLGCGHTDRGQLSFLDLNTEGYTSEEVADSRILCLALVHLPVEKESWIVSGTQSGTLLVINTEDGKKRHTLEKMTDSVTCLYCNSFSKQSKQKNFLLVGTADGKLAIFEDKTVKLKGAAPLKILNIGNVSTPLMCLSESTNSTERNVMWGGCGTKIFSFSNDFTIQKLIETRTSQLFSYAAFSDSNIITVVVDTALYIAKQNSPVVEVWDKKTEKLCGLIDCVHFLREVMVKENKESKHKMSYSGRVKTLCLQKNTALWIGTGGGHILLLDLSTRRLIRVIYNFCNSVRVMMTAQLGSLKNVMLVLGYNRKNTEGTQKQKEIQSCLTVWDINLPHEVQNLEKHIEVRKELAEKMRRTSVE
UniProt P28335, sequence (whole entry, looked up): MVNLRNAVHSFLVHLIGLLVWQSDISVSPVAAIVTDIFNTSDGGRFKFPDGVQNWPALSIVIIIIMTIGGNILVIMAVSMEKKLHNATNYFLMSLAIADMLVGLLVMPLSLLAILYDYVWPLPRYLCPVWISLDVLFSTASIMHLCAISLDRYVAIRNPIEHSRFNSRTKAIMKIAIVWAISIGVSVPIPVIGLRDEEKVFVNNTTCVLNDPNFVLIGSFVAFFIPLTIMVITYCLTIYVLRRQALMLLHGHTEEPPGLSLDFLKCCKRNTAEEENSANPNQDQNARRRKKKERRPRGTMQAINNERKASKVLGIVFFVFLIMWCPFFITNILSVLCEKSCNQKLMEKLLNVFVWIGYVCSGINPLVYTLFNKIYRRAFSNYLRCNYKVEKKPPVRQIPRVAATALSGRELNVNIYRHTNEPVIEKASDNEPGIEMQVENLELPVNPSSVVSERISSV

| Compound | target or system | assay | system | setting | measurement | result |
| --- | --- | --- | --- | --- | --- | --- |
| COc1cc(/C=C/C(=O)O)ccc1OCc1cn(CC(=O)Nc2ccc(Cl)cc2)nn1 | ACHE | enzyme activity, inhibitor, Ellman |  | 40 µM | inhibition | 34.8% |
| C[C@]12CC[C@H]3[C@@H](CC=C4CC(O)CC[C@@]43CO)[C@@H]1CCC2O (stereo partly shown) |  |  | rat, plasma | intraperitoneal, 10 mg/kg | bioavailability | 66% |
| CC[C@H](C)[C@H](NC(=O)[C@H](Cc1ccccc1)NC(=O)[C@H](CCC(=O)O)NC(=O)[C@H](CCCNC(=N)N)NC(=O)[C@H](C)NC(=O)[C@H](C)NC(=O)[C@H](CCC(N)=O)NC(=O)[C@H](CCC(=O)O)NC(=O)[C@H](CCC(=O)O)NC(=O)[C@H](CC(C)C)NC(=O)[C@H](Cc1ccc(O)cc1)NC(=O)[C@H](CO)NC(=O)[C@H](CO)NC(=O)[C@@H](NC(=O)[C@H](CC(=O)O)NC(=O)[C@H](CO)NC(=O)[C@@H](NC(=O)[C@H](Cc1ccccc1)NC(=O)[C@@H](NC(=O)CNC(=O)[C@H](CCC(=O)O)NC(=O)[C@H](C)NC(=O)CCc1c[nH]cn1)[C@@H](C)O)[C@@H](C)O)C(C)C)C(=O)N[C@@H](C)C(=O)N[C@@H](Cc1c[nH]c2ccccc12)C(=O)N[C@@H](CC(C)C)C(=O)N[C@H](C(=O)N[C@@H](CCCNC(=N)N)C(=O)NCC(=O)N[C@@H](CCCNC(=N)N)C(=O)N[C@@H](CCCCNC(=O)COCCOCCNC(=O)COCCOCCNC(=O)CC[C@H](NC(=O)CCCCCCCCCCCCCCCCC(=O)O)C(=O)O)C(=O)NCC(=O)NCC(=O)N[C@@H](CO)C(=O)N[C@@H](CCCCNc1c(NCCCCCN(O)C(=O)CCC(=O)NCCCCCN(O)C(=O)CCC(=O)NCCCCCN(O)C(C)=O)c(=O)c1=O)C(=O)O)C(C)C |  |  | rat, plasma | intravenous, 20 nmol/kg | MRT | 10 h |
| COc1cc(/C=C/C(=O)O)ccc1OCc1cn(CC(=O)Nc2cccc(C)c2)nn1 | ACHE | enzyme activity, inhibitor, Ellman |  | 40 µM | inhibition | 16% |
| Nc1ccncc1 | SCN1A (Homo sapiens, UniProt P35498) | ion current, inhibitor, patch clamp |  | 3 µM | inhibition | -18.3% |
| COc1cnc(OC)n2nc(NS(=O)(=O)c3c(OCC(F)F)cccc3C(F)(F)F)nc12 | L02 | cell growth or viability, CCK-8 |  | 25 µM, 72 h | inhibition | 0.21% |
| Cc1nn(C)cc1-c1nc2c(N3CCN(Cc4ccc(Cl)cc4)CC3)c(Cl)cnc2[nH]1 | MYO3B | binding, competition with immobilised ligand |  | 1 µM | remaining binding | 100% |
| CCN(CC)CCCC[C@H](NC(=O)[C@H](CC(C)C)NC(=O)[C@H](C)NC(=O)[C@H](Cc1ccccc1)NC(=O)c1ccc(C(C)(C)C)cc1)C(=O)N[C@@H](CO)C(=O)OC | EDNRA (Homo sapiens, UniProt P25101) | ligand displacement, radioligand |  | 10 µM | inhibition | -12% |
| N.N.[Cl][Pt][Cl] | OCI-Ly7 | cell growth or viability, ATP luminescence |  | 10 µM, 72 h | inhibition | 100% |
| CC(C)C[C@H]1C(=O)N2CCC[C@H]2[C@]2(O)O[C@](NC(=O)[C@@H]3C=C4c5cccc6[nH]c(Br)c(c56)C[C@H]4[N+](C)(C)C3)(C(C)C)C(=O)N12 | HTR2A (Homo sapiens, UniProt P28223) | ligand displacement, radioligand |  | 10 µM | inhibition | 96.8% |
| [2H]c1c([2H])c([C@]2([2H])CCCN2C(=O)C(C)(C)Oc2ccc3cn[nH]c3c2)c([2H])c([2H])c1C([2H])([2H])[2H] | TAOK2 (Homo sapiens, UniProt Q9UL54) | binding, competition with immobilised ligand |  | 1 µM | remaining binding | 94% |
| Cn1cc(-c2cc(F)cc(N3CCn4c(cc5c4CCCC5)C3=O)c2CO)cc(Nc2ccc(N3CCN(C4COC4)CC3)cn2)c1=O | LRRK2 | enzyme activity, inhibitor |  | 0.1 µM | inhibition | 19% |
| CN1C(=S)N(c2ccccc2)C(=O)/C1=C1/C(=O)N(C)c2ccc(Cl)cc21 | ACHE | enzyme activity, inhibitor, Ellman |  | 5 µM | inhibition | 60% |
| CC(C)CC(=O)OC[C@H]1O[C@@](C#N)(c2ccc3c(N)ncnn23)[C@H](O)[C@@H]1O | DRD2 (Homo sapiens, UniProt P14416) | cell-free assay |  | 20 µM | inhibition | -1% |
| C[C@H]1O[C@H](O[C@H]2[C@H](O)[C@@H](O)[C@@H](O[C@H]3[C@H](O)[C@@H](O)C(O)O[C@@H]3CO)O[C@@H]2CO)[C@H](O)[C@@H](O)[C@@H]1N[C@H]1C=C(CO)[C@@H](O)[C@H](O)[C@H]1O (stereo partly shown) | MAL12 (Saccharomyces cerevisiae S288c, UniProt P53341) | enzyme activity, inhibitor, absorbance |  | 80 µg/mL | inhibition | 43.4% |
| COc1ncccc1-c1cnn2ccc(N3CCN(C(=O)OC(C)C)CC3)nc12 | WNK3 (Homo sapiens, UniProt Q9BYP7) | binding, competition with immobilised ligand |  | 1 µM | remaining binding | 53% |
| CN1C(=O)/C(=N\Nc2ncc(-c3cc4ccccc4oc3=O)s2)c2cc(Cl)ccc21 | ACHE | enzyme activity, inhibitor, Ellman |  | 50 nM | inhibition | 32% |
| COc1cc(/C=C/C(=O)O)ccc1OCc1cn(CC(=O)Nc2ccc(O)cc2)nn1 | ACHE | enzyme activity, inhibitor, Ellman |  | 40 µM | inhibition | 30% |
| c1cncc([C@@H]2CCCN2)c1 | DRD3 (Homo sapiens, UniProt P35462) | ligand displacement |  | 50 µM | inhibition | 11.5% |
| Nc1ncc(-c2nc(N3CCOCC3)nc(N3CCOCC3)n2)c(C(F)F)n1 | MYO3B | binding, competition with immobilised ligand |  | 10 µM | remaining binding | 99% |
| COc1cc2c(cc1OC)-c1c(OC)c(OC)cc3c1[C@H](C2)N(C)CC3 (racemic) | HTR2C (Homo sapiens, UniProt P28335) | ligand displacement, radioligand |  | 10 µM | inhibition | 31% |
| CCc1ccc(N2C(=O)/C(=C3/C(=O)N(C)c4ccc(Cl)cc43)NC2=S)cc1 | ACHE | enzyme activity, inhibitor, Ellman |  | 10 µM | inhibition | 91% |
| CC(C)OC(=O)[C@H](C)N[P@](=O)(CO[C@H](C)Cn1cnc2c(N)ncnc21)Oc1ccccc1 | CDK1 (Homo sapiens, UniProt P06493) | enzyme activity, inhibitor, ADP detection |  | 100 µM | inhibition | 81.8% |
| C#Cc1n[nH]c2c(-c3cn([C@@H](C)c4ccccn4)c(=O)[nH]c3=O)cc(F)cc12 | LRRK2 | enzyme activity, inhibitor |  | 0.1 µM | inhibition | 5.9% |
| COc1cc(/C=C/C(=O)O)ccc1OCc1cn(CC(=O)Nc2ccccc2Cl)nn1 | ACHE | enzyme activity, inhibitor, Ellman |  | 40 µM | inhibition | 22.3% |
| CN1CCC[C@H]1c1cccnc1 | DRD4 (Homo sapiens, UniProt P21917) | ligand displacement |  | 50 µM | inhibition | -5.26% |
| COc1cc(/C=C/C(=O)O)ccc1OCc1cn(CC(=O)NCCc2ccccc2)nn1 | ACHE | enzyme activity, inhibitor, Ellman |  | 40 µM | inhibition | 18.4% |
| CC(C)C[C@H](NC(=O)[C@H](Cc1ccccc1)NC(=O)[C@H](Cc1ccccc1)NC(=O)Cc1ccc(-c2ccccc2)cc1)C(=O)N[C@@H](CCCCN)C(=O)N[C@@H](CCCNC(=N)N)C(=O)N[C@H](C(=O)N[C@@H](Cc1c[nH]c2ccccc12)C(=O)N[C@@H](CCCCN)C(=O)N[C@@H](CCCNC(=N)N)C(=O)O)C(C)C |  | metabolic stability, mass spectrometry | human, liver microsomes | 45 min | compound remaining | 21.8% |

For quick reference, copied from above:
| Compound | target or system | assay | system | setting | measurement | result |
| --- | --- | --- | --- | --- | --- | --- |
| COc1cnc(OC)n2nc(NS(=O)(=O)c3c(OCC(F)F)cccc3C(F)(F)F)nc12 | L02 | cell growth or viability, CCK-8 |  | 25 µM, 72 h | inhibition | 0.21% |
| Cc1nn(C)cc1-c1nc2c(N3CCN(Cc4ccc(Cl)cc4)CC3)c(Cl)cnc2[nH]1 | MYO3B | binding, competition with immobilised ligand |  | 1 µM | remaining binding | 100% |
| CCN(CC)CCCC[C@H](NC(=O)[C@H](CC(C)C)NC(=O)[C@H](C)NC(=O)[C@H](Cc1ccccc1)NC(=O)c1ccc(C(C)(C)C)cc1)C(=O)N[C@@H](CO)C(=O)OC | EDNRA (Homo sapiens, UniProt P25101) | ligand displacement, radioligand |  | 10 µM | inhibition | -12% |
